{"data": "Published values of several laboratories", "note": "Numbered parts are unrelated; each lists some results of a single study."}
{"data": "Study 1", "target": "PABPC1L2, full length, GST fusion (mouse, UniProt A0ABA7IW68)", "technique": "RNAcompete", "form": "RNA", "sample": "in vitro", "tested at": "20 nM", "notes": "7-mer, probes averaged, single round", "reference": "mean of 7-mers", "direction": "higher = stronger binding", "Target sequence (chain)": "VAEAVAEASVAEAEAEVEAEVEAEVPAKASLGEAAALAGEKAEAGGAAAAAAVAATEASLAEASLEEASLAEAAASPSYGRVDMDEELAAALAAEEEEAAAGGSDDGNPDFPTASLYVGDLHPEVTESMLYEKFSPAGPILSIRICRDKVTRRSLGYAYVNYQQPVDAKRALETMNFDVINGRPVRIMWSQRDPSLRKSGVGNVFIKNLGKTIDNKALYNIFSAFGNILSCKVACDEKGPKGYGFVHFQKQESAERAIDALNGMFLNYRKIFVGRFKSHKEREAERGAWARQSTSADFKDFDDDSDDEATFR"}
{"Oligonucleotide": "GUCAGGA", "7-mer Z-score": 0.182}
{"Oligonucleotide": "GGACUUC", "7-mer Z-score": -0.0409}
{"Oligonucleotide": "CUAGAAG", "7-mer Z-score": -0.0718}
{"Oligonucleotide": "GGAGGCU", "7-mer Z-score": 0.175}
{"Oligonucleotide": "CCCUCGC", "7-mer Z-score": -0.394}
{"Oligonucleotide": "UAAGCUU", "7-mer Z-score": -0.278}
{"Oligonucleotide": "AGGCAGC", "7-mer Z-score": 0.162}
{"Oligonucleotide": "CGGUCUC", "7-mer Z-score": -0.304}
{"data": "Study 2", "target": "Protein C-ets-1 (ETS1, Homo sapiens, UniProt P14921, residues 1-441, full length assumed)", "technique": "protein-binding microarray", "form": "double-stranded DNA, one strand shown", "sample": "in vitro", "tested at": "not given", "notes": "k-mer, scored over probes, only values ≥0.25", "direction": "higher = stronger binding", "Target sequence (chain)": "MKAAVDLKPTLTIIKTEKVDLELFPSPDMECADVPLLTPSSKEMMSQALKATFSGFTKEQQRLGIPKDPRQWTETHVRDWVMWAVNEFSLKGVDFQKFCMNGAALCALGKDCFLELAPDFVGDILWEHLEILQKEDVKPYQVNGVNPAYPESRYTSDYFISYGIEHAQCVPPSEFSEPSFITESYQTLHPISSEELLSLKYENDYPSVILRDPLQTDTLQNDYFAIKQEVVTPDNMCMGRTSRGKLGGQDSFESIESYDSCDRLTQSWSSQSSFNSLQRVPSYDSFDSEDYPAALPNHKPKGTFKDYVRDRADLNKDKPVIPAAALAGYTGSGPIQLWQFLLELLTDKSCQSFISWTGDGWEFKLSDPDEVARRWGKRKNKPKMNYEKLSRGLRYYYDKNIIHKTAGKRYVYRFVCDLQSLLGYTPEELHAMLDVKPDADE"}
{"Oligonucleotide": "ATATCCTA", "E-score": 0.29}
{"Oligonucleotide": "AGATCCGG", "E-score": 0.434}
{"Oligonucleotide": "ATTGTTCC", "E-score": 0.272}
{"Oligonucleotide": "CAATATCC", "E-score": 0.332}
{"Oligonucleotide": "ATTTCCCA", "E-score": 0.26}
{"Oligonucleotide": "ATAGCGGA", "E-score": 0.314}
{"Oligonucleotide": "ACAGGACG", "E-score": 0.428}
{"Oligonucleotide": "CGGAGGTC", "E-score": 0.283}
{"data": "Study 3", "target": "Alpha-1B adrenergic receptor (ADRA1B, Homo sapiens, UniProt P35368)", "effect on": "binding", "technique": "radioligand binding", "tested at": "10 µM"}
{"SMILES": "Cc1c[nH]c2nccc(Oc3c(F)cc(Nc4cc(Cl)nc(N)n4)cc3F)c12", "inhibition [%]": 17}
{"SMILES": "COCc1nc2cnc3cc(-c4c(C)noc4C)c(OC[C@H]4CCNC4)cc3c2n1[C@H](C)c1ccccc1", "inhibition [%]": 4.2}
{"SMILES": "CC(C)CC(=O)N1CCc2nc(-c3ccc(Br)cc3)nc(N(C)Cc3ccccc3)c2C1", "inhibition [%]": 17.5}
{"SMILES": "Cc1c(NC(=O)c2cc(C(N)=O)nc3cc(F)ccc23)c(C(F)(F)F)nn1Cc1ccc(C(C)(C)C)cc1", "inhibition [%]": -5.98}
{"SMILES": "Cc1nc(N2CC[C@@H](O)C2)ncc1-c1cc(C(F)(F)F)cc2[nH]ncc12", "inhibition [%]": 15.9}
{"SMILES": "CCCOc1ccc([C@H]2[C@H](C(=O)O)[C@@H](c3ccc4c(c3)OCO4)CN2CC(=O)Nc2c(CC)cccc2CC)cc1", "inhibition [%]": -2.22}
{"SMILES": "CNC(=O)c1ccc(Nc2ncc(C(F)(F)F)c(NCc3nccnc3N(C)S(C)(=O)=O)n2)cc1", "inhibition [%]": -0.22}
{"SMILES": "COc1cc(-c2cn(C3CCc4ccccc4N(CC(F)(F)F)C3=O)nn2)ccc1-n1ccc(C)n1 (stereo not shown)", "inhibition [%]": -31.6}
{"SMILES": "CC(=O)c1c(NS(C)(=O)=O)c2cc(-c3ccc(Cl)cc3)c(-c3ccc(Cl)cc3Cl)nc2n(C)c1=O", "inhibition [%]": 47.2}
{"SMILES": "CS(=O)(=O)NCC[C@H](NC(=O)c1cncc2c1cnn2-c1ccc(F)cc1)c1ccnc(S(C)(=O)=O)c1", "inhibition [%]": 15.8}
{"SMILES": "CC1=C(C#N)C(c2ccc3c(c2)c(NC(=O)c2ccccc2C)nn3C)C(C#N)=C(C)N1", "inhibition [%]": -4.61}
{"SMILES": "Cc1cc(-n2nc(Cc3cc(F)cc(C(F)(F)F)c3)nc2C)ccc1C(N)=O", "inhibition [%]": 6.84}
{"SMILES": "Cc1nccc(COC(=O)N2C[C@@H]3[C@@H](CNC(=O)c4ccc5[nH]nnc5c4)[C@@H]3C2)n1", "inhibition [%]": 30.2}
{"SMILES": "COc1nc2ccc([C@@](O)(c3ccccc3)C3CCN(C(C)=O)CC3)cc2c(Cl)c1Cc1ccc(-n2cccn2)cc1", "inhibition [%]": -4.69}
{"SMILES": "O[C@]1(C(F)(F)F)CCCC[C@H]1Nc1ccc(F)cc1", "inhibition [%]": 8.7}
{"data": "Study 4", "SMILES": "Cc1cn(-c2cc(NC(=O)c3ccc(C)c(Nc4nccc(-c5cccnc5)n4)c3)cc(C(F)(F)F)c2)cn1", "effect on": "enzyme activity", "action": "inhibitor", "tested at": "0.5 µM", "reference": "control"}
{"target": "RPS6KA4 (Homo sapiens, UniProt O75676)", "remaining activity [%]": 103}
{"target": "PNCK (Homo sapiens, UniProt Q6P2M8)", "remaining activity [%]": 101}
{"target": "PAK3 (Homo sapiens, UniProt O75914)", "remaining activity [%]": 108}
{"target": "MAP2K1 (Homo sapiens, UniProt Q02750)", "remaining activity [%]": 106}
{"target": "Cyclin-dependent kinase 9, with cyclin K (CDK9, Homo sapiens, UniProt P50750)", "remaining activity [%]": 97.9}
{"target": "MAPK1 (Homo sapiens, UniProt P28482)", "remaining activity [%]": 100}
{"target": "Cyclin-dependent kinase 1, with cyclin A (CDK1, Homo sapiens, UniProt P06493)", "remaining activity [%]": 99.7}
{"target": "MAPK14 (Homo sapiens, UniProt Q16539)", "remaining activity [%]": 23.3}
{"target": "CLK4 (Homo sapiens, UniProt Q9HAZ1)", "remaining activity [%]": 45.5}
{"target": "GRK4 (Homo sapiens, UniProt P32298)", "remaining activity [%]": 89.2}
{"target": "AKT2 (Homo sapiens, UniProt P31751)", "remaining activity [%]": 103}
{"target": "CDC42BPB (Homo sapiens, UniProt Q9Y5S2)", "remaining activity [%]": 99.6}
{"note": "Excerpt of the above (study 1):"}
{"Oligonucleotide": "GUCAGGA", "7-mer Z-score": 0.182}
{"Oligonucleotide": "GGACUUC", "7-mer Z-score": -0.0409}
{"Oligonucleotide": "CUAGAAG", "7-mer Z-score": -0.0718}
{"Oligonucleotide": "GGAGGCU", "7-mer Z-score": 0.175}
{"Oligonucleotide": "CCCUCGC", "7-mer Z-score": -0.394}
{"Oligonucleotide": "UAAGCUU", "7-mer Z-score": -0.278}
{"Oligonucleotide": "AGGCAGC", "7-mer Z-score": 0.162}
